Measurements gathered from unrelated publications.
Each numbered part is a random draw from the data of one study; scales do not carry over between parts. “And” joins repeats or separate records; there may be more than shown.
Sequence of UniProt Q96RR4 (whole entry, looked up): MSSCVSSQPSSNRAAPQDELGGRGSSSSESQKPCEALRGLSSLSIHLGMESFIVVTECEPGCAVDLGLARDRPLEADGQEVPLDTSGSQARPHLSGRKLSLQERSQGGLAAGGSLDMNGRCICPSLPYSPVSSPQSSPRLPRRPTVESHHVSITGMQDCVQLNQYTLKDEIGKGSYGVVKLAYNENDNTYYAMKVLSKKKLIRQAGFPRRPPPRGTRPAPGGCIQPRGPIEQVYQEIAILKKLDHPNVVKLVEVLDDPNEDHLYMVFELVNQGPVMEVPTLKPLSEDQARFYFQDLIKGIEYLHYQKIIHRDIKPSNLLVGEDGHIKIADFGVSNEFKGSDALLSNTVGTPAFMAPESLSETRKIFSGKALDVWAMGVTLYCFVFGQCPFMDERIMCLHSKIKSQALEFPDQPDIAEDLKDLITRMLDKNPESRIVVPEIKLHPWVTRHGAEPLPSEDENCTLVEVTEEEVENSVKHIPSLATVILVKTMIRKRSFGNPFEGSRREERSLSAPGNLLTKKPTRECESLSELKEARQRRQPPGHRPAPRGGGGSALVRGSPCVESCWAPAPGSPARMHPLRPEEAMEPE
Sequence of UniProt Q9Y2H1 (whole entry, looked up): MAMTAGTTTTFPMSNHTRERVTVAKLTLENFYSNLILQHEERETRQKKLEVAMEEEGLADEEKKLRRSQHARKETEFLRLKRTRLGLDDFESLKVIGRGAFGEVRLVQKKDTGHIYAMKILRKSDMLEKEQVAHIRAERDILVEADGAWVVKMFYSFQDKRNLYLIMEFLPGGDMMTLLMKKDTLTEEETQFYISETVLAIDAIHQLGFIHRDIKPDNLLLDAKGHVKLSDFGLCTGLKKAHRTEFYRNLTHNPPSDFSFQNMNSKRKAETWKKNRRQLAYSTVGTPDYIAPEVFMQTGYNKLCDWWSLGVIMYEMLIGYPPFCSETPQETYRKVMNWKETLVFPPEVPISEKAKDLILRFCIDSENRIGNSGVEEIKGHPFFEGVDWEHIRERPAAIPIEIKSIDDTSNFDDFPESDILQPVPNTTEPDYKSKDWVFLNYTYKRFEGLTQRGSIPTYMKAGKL
Sequence of UniProt Q6XUX3 (whole entry, looked up): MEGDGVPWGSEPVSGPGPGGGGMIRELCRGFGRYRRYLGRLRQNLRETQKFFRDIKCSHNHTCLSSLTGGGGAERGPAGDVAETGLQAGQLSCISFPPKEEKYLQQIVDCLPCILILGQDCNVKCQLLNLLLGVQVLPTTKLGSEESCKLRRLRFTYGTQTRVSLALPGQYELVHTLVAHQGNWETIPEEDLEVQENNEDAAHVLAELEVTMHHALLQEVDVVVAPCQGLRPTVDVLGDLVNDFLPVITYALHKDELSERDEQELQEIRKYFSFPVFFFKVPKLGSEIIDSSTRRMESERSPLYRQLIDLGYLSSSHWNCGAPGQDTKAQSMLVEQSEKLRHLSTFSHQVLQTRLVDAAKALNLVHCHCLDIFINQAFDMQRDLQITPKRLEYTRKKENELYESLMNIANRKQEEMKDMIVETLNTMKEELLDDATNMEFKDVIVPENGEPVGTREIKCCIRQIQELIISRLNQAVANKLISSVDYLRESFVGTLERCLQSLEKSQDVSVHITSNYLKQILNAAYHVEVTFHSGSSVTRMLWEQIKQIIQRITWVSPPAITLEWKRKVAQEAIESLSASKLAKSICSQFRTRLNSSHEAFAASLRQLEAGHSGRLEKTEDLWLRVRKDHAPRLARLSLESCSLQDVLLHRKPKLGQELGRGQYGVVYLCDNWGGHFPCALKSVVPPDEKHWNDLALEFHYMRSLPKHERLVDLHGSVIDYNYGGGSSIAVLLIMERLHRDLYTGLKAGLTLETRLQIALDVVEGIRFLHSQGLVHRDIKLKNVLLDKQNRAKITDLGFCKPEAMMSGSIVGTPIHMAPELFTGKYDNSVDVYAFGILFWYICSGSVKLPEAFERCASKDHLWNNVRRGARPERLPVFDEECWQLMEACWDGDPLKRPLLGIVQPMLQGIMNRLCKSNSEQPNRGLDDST

Block 1
Structure (SMILES): COc1cc(C(=O)N2CCC(N3CCN(C)CC3)CC2)ccc1Nc1ncc2c(n1)N(C)c1ccccc1C(=O)N2C
PIP5K1C (mouse); KiNativ ATP probe; mouse brain tissue; 1 µM, ATP site probe — inhibition: -5%.
For mouse NEK9; probe labelling, KiNativ ATP probe; mouse brain lysate; 0.1 µM, activation loop LGDYGLAkK: inhibition read 2.8%.
AMPKa1 and AMPKa2 (mouse); probe labelling, KiNativ, item: VAVkILNR peptide, Lys1 site; brain tissue lysate (mouse); 1 µM, together with: ATP acyl-phosphate probe — inhibition: 5.3%.
human PBMC; probe labeling, inhibitor, KiNativ profiling; cell lysate; concentration not given, domain 1, LYS2 site, together with: ATP acyl-phosphate probe 0.1 µM — inhibition: 16.4%.
The inhibition was 1.7% (inhibitor, KiNativ profiling, item: peptide VLGTGAYGkVFLVR; human PBMC lysate; concentration not given, ATP loop site, together with: ADP acyl-phosphate probe).
The inhibition was -9.1% (CaMK2d (mouse); probe labelling, KiNativ, item: Lys1 site peptide; brain tissue lysate (mouse); 1 µM, together with: ATP acyl-phosphate probe).
SLK mouse; KiNativ profiling; mouse brain lysate; 0.1 µM, LYS1 site, together with: ADP acyl phosphate probe — inhibition: -11.1%.
For IGF1R (human); probe labelling, KiNativ ADP probe; human PBMC lysate; concentration not given, LYS1 labelled site: inhibition read -14.2%.

Block 2 — read-out: enzyme activity; action: inhibitor; concentration: 77 µM; relative to: untreated
Target: DNA polymerase theta, ATPase domain (POLQ, Homo sapiens, UniProt O75417)
Sequence of UniProt O75417 (whole entry, unmodified, looked up): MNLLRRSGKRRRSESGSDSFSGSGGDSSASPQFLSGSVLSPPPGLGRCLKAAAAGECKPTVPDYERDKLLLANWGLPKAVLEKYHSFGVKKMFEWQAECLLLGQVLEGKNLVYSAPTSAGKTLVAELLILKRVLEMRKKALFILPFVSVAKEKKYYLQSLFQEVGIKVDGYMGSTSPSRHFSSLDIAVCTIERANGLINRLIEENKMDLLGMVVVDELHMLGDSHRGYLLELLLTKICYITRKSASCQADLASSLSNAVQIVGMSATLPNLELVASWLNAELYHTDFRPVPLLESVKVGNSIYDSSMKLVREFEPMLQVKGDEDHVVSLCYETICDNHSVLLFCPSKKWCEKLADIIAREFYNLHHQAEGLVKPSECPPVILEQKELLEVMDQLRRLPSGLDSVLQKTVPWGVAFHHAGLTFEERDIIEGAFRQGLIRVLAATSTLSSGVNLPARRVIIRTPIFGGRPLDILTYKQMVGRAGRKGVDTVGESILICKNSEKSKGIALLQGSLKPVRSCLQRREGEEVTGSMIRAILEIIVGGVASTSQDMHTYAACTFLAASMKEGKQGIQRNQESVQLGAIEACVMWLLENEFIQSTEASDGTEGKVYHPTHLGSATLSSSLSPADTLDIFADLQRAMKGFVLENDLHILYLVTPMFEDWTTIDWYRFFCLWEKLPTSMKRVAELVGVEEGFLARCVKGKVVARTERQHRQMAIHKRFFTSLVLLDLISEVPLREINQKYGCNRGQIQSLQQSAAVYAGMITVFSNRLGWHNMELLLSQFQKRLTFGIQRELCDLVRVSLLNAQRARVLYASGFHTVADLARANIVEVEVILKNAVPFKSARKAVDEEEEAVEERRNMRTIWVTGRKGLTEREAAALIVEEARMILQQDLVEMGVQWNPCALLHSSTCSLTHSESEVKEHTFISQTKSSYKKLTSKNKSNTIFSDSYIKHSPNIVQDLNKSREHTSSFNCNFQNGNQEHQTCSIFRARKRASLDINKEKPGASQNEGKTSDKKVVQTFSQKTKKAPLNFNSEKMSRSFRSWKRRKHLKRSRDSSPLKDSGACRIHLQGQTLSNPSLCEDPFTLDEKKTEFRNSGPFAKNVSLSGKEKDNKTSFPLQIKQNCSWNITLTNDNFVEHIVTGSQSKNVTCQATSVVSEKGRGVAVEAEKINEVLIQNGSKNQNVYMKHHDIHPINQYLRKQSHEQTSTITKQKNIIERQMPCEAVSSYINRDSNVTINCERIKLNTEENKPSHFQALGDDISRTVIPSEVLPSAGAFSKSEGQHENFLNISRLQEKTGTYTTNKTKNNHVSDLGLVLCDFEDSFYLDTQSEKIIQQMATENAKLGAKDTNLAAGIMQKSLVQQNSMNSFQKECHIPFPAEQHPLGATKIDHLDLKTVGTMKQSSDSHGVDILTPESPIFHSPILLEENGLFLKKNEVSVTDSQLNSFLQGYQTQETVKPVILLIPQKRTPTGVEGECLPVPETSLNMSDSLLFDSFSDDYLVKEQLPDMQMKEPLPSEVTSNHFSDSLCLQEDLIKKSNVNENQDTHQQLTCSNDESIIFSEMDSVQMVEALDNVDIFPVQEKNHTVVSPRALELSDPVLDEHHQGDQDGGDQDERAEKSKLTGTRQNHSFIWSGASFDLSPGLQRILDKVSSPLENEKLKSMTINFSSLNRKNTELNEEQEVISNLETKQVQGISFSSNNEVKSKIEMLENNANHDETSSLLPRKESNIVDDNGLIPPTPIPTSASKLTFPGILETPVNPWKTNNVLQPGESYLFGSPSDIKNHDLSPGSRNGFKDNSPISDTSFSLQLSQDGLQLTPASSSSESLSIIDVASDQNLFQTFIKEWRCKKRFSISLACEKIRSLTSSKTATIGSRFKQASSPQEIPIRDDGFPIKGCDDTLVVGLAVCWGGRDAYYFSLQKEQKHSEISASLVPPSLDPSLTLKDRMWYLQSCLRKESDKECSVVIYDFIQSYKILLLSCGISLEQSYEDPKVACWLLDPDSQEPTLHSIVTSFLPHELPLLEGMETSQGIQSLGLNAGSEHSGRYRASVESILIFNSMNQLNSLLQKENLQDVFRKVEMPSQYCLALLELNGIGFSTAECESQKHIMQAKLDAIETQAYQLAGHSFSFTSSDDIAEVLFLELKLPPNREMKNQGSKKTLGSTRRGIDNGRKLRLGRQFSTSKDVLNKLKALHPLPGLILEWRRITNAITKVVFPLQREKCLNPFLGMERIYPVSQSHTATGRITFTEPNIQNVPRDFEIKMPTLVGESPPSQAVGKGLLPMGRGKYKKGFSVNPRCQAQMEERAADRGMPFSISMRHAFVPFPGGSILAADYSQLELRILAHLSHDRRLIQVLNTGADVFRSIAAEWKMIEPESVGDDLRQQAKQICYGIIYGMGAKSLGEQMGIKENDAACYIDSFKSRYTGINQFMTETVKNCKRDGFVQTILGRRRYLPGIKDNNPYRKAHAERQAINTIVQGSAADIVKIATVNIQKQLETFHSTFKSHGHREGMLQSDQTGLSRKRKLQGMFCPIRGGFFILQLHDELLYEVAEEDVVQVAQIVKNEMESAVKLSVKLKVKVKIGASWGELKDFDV
The remaining activity of `C[C@]12CCC(=O)C=C1CC[C@@H]1[C@@H]2C(=O)C[C@@]2(C)[C@H]1CC[C@]2(O)C(=O)CO` is reported as 97.1% and 99.8%.
`CCN(CC)CCCCNc1ncc2cc(-c3c(Cl)cccc3Cl)c(NC(=O)NC(C)(C)C)nc2n1` has a remaining activity of 95.3%.
`N[C@H](C(=O)O)[C@H]1C[C@@H]1C(=O)O` has a remaining activity of 100%.
`NC[C@@H]1O[C@@H](O[C@@H]2[C@@H](O[C@@H]3O[C@H](CO)[C@@H](O)[C@H]3O)[C@H](O)[C@@H](N)C[C@H]2N)[C@@H](N)[C@H](O)[C@H]1O` gave a remaining activity of 102%.
With `CCCn1cnc2c1c(=O)n(CCCCC(C)=O)c(=O)n2C` the remaining activity was 102%.
For `CN1CCN(CCOc2cc(OC3CCOCC3)c3c(Nc4c(Cl)ccc5c4OCO5)ncnc3c2)CC1`, the remaining activity was 97.1%.
`CCOC(=O)c1ccc(OC(=O)CCCCCN=C(N)N)cc1` has a remaining activity of 103%.
`NC(CO)C(=O)NNCc1ccc(O)c(O)c1O` (stereo not drawn) has a remaining activity of 104%.
`O=c1[nH]cnc2c1ncn2[C@@H]1O[C@H](CO)[C@@H](O)[C@H]1O` has a remaining activity of 94.4%.
`CCCCOC(=O)c1ccc(N)cc1` gave a remaining activity of 99.8%.
For `Cc1c(OCC(F)(F)F)ccnc1C[S+]([O-])c1nc2ccccc2[nH]1` (stereo not drawn), the remaining activity was 101%.

Block 3 — read-out: enzyme activity; action: inhibitor; concentration: 0.5 µM; relative to: control
Target: Casein kinase I isoform delta (CSNK1D, Homo sapiens, UniProt P48730)
Sequence of UniProt P48730 (whole entry, looked up): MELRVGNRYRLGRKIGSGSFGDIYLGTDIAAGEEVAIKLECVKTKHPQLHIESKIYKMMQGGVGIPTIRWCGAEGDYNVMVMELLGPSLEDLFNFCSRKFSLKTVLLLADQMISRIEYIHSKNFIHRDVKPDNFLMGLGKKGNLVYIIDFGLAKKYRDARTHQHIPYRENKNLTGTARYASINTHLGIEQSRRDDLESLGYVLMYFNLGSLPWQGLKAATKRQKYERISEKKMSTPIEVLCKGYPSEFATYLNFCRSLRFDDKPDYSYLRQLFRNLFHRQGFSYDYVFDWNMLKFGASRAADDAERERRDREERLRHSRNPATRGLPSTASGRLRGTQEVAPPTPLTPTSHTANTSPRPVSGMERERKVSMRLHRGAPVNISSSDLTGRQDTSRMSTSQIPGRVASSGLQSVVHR
`COc1cc2ncnc(Nc3ccc(Oc4ccccc4)cc3)c2cc1OC` gave a remaining activity of 106%.
With `Nc1[nH]nc2nc3ccccc3nc12` the remaining activity was 94.2%.
`CNC(=O)c1cc(Oc2ccc(NC(=O)Nc3ccc(Cl)c(C(F)(F)F)c3)cc2)ccn1` has a remaining activity of 103%.
`COc1ccc(OC)c2c(=S)c3ccccc3[nH]c12` has a remaining activity of 101%.
`COc1ccc(C(=O)Nc2sc3c(c2C(N)=O)CCCC3)cc1OC` gave a remaining activity of 103%.
For `Cn1sc(=O)n(Cc2ccccc2)c1=O`, the remaining activity was 100%.
For `COc1cc2nccc(Oc3ccc(NC(=S)NC(=O)c4ccccc4C)cc3)c2cc1OC`, the remaining activity was 212%.
`O=C1NC(=O)C(c2cn(CCCn3ccnc3)c3ccccc23)=C1Nc1ccccc1` gave a remaining activity of 102%.
`CN(C)c1ccc(C=C2C(=O)Nc3ccccc32)cc1` has a remaining activity of 69%.
With `O=C(O)c1ccc2c3c1cccc3c(=O)n1c3ccccc3nc21` the remaining activity was 101%.
`Cc1nc(-c2ccccc2)c(-c2ccncc2)o1` gave a remaining activity of 44%.
With `NCCNc1ncc(C(N)=O)c(Nc2cccc(C(F)(F)F)c2)n1` the remaining activity was 85.1%.
`O=C1NC(=O)C(c2cn(CCCO)c3ncccc23)=C1c1cnccn1` has a remaining activity of 99.4%.
`CC(C)[C@H](CO)Nc1nc(Nc2cc(N)cc(Cl)c2)c2ncn(C(C)C)c2n1` gave a remaining activity of 65.7%.
`Cc1ccc(NC(=O)c2ccc(CN3CCN(C)CC3)cc2)cc1Nc1nc(-c2cccnc2)cs1` has a remaining activity of 92.8%.

Block 4 — read-out: cell-free assay; method: competition with immobilised ligand; concentration: 1 µM
SMILES: CN(C)CC#Cc1ccc(OCCCc2sc(N3CCc4cccc(C(=O)Nc5nc6ccccc6s5)c4C3)nc2C(=O)O)c(F)c1
The remaining binding was 93% (Tyrosine-protein kinase ABL1, phosphorylated (ABL1, Homo sapiens, UniProt P00519)).
It gave 100% for remaining binding (Leukocyte tyrosine kinase receptor (LTK, Homo sapiens, UniProt P29376)).
For cGMP-dependent protein kinase 2 (PRKG2, Homo sapiens, UniProt Q13237): remaining binding read 86%.
For Calcium/calmodulin-dependent protein kinase kinase 2 (CAMKK2, Homo sapiens, UniProt Q96RR4): remaining binding read 100%.
Dual serine/threonine and tyrosine protein kinase (DSTYK, Homo sapiens, UniProt Q6XUX3) — remaining binding: 100%.
It gave 80% for remaining binding (Receptor-type tyrosine-protein kinase FLT3 (FLT3, Homo sapiens, UniProt P36888)).
Serine/threonine-protein kinase 38-like (STK38L, Homo sapiens, UniProt Q9Y2H1) — remaining binding: 83%.
Calcium/calmodulin-dependent protein kinase type II subunit delta (CAMK2D, Homo sapiens, UniProt Q13557) — remaining binding: 72%.

For quick reference, copied from above (block 2):
`N[C@H](C(=O)O)[C@H]1C[C@@H]1C(=O)O` has a remaining activity of 100%.
`NC[C@@H]1O[C@@H](O[C@@H]2[C@@H](O[C@@H]3O[C@H](CO)[C@@H](O)[C@H]3O)[C@H](O)[C@@H](N)C[C@H]2N)[C@@H](N)[C@H](O)[C@H]1O` gave a remaining activity of 102%.
With `CCCn1cnc2c1c(=O)n(CCCCC(C)=O)c(=O)n2C` the remaining activity was 102%.
For `CN1CCN(CCOc2cc(OC3CCOCC3)c3c(Nc4c(Cl)ccc5c4OCO5)ncnc3c2)CC1`, the remaining activity was 97.1%.
`CCOC(=O)c1ccc(OC(=O)CCCCCN=C(N)N)cc1` has a remaining activity of 103%.
`NC(CO)C(=O)NNCc1ccc(O)c(O)c1O` (stereo not drawn) has a remaining activity of 104%.
